Experimental data gathered from unrelated publications.
Each line is one published result; not all experiments were run side by side. Values joined by “and” are separate records of one study, mostly repeats; a detail may differ. ± marks the error that the study gave.

`CC(C)(C)[C@H](NC(=O)C(F)(F)F)C(=O)N1C[C@H]2[C@@H]([C@H]1C(=O)N[C@H](C#N)C[C@@H]1CCNC1=O)C2(C)C` gave an inhibition of 85% and 135% (SARS-CoV-2; viral replication; Vero E6; 0.125 µM).
`COc1ccccc1C(=O)NC1CCCN(Cc2cccc(-c3ccc(C)c(Cl)c3)c2)C1` (stereo not shown) gave an AC50 of 12.6 µM (SARS-CoV-2; cytopathic effect, cell-based CPE; USA_WA1/2020; round 1, 5-point dilution).
`CNC(=O)[C@@H](NC(=O)[C@H](CC(C)C)[C@H](O)C(=O)NO)C(C)(C)C` gave an IC50 of 1.5 µM (Daboia russelii venom proteases; proteolytic activity, inhibitor; venom from MP, with: azocasein substrate).
The inhibition of `CC(C)(C(=O)c1cccnc1)c1cccnc1` is reported as 46.4% (SARS-CoV-2; viral replication; Vero E6, USA-WA1/2020; 2.5 µM).
The inhibition of `Cn1cnc(Cn2c(=O)[nH]/c(=N\c3cc4cn(C)nc4cc3Cl)n(Cc3cc(F)c(F)cc3F)c2=O)n1` is reported as 0% (SARS-CoV-2; viral replication; Vero C1008, XBB.1; 0.005716 µM).
`CC[C@H](C)[C@H](NC(=O)[C@H](CC(C)C)NC(=O)[C@H](Cc1c[nH]c2ccccc12)NC(=O)[C@H](CCC(N)=O)NC(=O)[C@@H](NC(=O)[C@H](Cc1ccccc1)NC(=O)[C@H](C)NC(=O)[C@H](CCCCNC(=O)COCCOCCNC(=O)COCCOCCNC(=O)CC[C@H](NC(=O)CCCCCCCCCCCCCCCCCCC(=O)O)C(=O)O)NC(=O)[C@H](CCC(N)=O)NC(=O)[C@H](C)NC(=O)[C@@H](NC(=O)[C@H](CCCCN)NC(=O)[C@H](CC(=O)O)NC(=O)[C@H](CC(C)C)NC(=O)C(C)(C)NC(=O)[C@@H](NC(=O)[C@H](CO)NC(=O)[C@H](Cc1ccc(O)cc1)NC(=O)[C@H](CC(=O)O)NC(=O)[C@H](CO)NC(=O)[C@@H](NC(=O)[C@H](Cc1ccccc1)NC(=O)[C@@H](NC(=O)CNC(=O)[C@H](CCC(=O)O)NC(=O)C(C)(C)NC(=O)[C@@H](N)Cc1ccc(O)cc1)[C@@H](C)O)[C@@H](C)O)[C@@H](C)CC)[C@@H](C)CC)C(C)C)C(=O)N[C@@H](C)C(=O)NCC(=O)NCC(=O)N1CCC[C@H]1C(=O)N[C@@H](CO)C(=O)N[C@@H](CO)C(=O)NCC(=O)N[C@@H](C)C(=O)N1CCC[C@H]1C(=O)N1CCC[C@H]1C(=O)N1CCC[C@H]1C(=O)N[C@@H](CO)C(N)=O` — result for “subjects with adverse event”: 0% (refers to: treatment-emergent feeling hot; healthy subjects; 1.5 mg, multiple ascending dose).
`COc1ccc(-c2nc(CN3CCC(C(=O)NCCCN4CCN(c5ccccc5F)CC4)CC3)c(C)o2)cc1OC` gave an AC50 of 8.91 µM (SARS-CoV-2; cytopathic effect, cell-based CPE; USA_WA1/2020; round 2, 5-point dilution).
For `Nc1ncnc2c([C@@H]3N[C@H](CO)[C@@H](O)[C@H]3O)c[nH]c12`, the inhibition was 98.5% (Marburg virus; viral replication; HeLa, Angola; 100 µM).
`O=C(CSc1nc2c(c(=O)[nH]1)CCCC2)NNC(=O)c1ccc([N+](=O)[O-])cc1` gave an inhibition of 30 ± 3.3% (SARS-CoV-2; viral replication, plaque reduction; 31.25 µM).
The inhibition of `COc1cccc2c(N3CCc4ccccc4C3C)nc(Nc3ccc(F)cc3C)nc12` (stereo not shown) is reported as 63.1% (SARS-CoV-2; viral replication; Vero C1008, USA-WA1/2020; 2.5 µM, reconfirmation).
The inhibition of `COc1ccc(C[C@@H]2c3cc(Oc4cc(C[C@@H]5c6cc(O)c(OC)cc6CCN5C)ccc4O)c(OC)cc3CCN2C)cc1` is reported as 50% (SARS-CoV-2; cytopathic effect; Vero E6; 50 µM, first run).
The inhibition of `O=C(CSc1nc2c(c(=O)[nH]1)CCCC2)NNC(=O)c1ccc(Cl)cc1` is reported as 34.4 ± 5.1% (SARS-CoV-2; virucidal activity, plaque reduction; 62.5 µM).
The inhibition of `O=C(O[C@@H]1Cc2c(O)cc(O)cc2O[C@@H]1c1cc(O)c(O)c(O)c1)c1cc(O)c(O)c(O)c1` is reported as 0% (SARS-CoV-2; cytopathic effect; Vero E6; 6.25 µM, first run).
`Cn1cnc(Cn2c(=O)[nH]/c(=N\c3cc4cn(C)nc4cc3Cl)n(Cc3cc(F)c(F)cc3F)c2=O)n1` — result for “patients with adverse event”: 0% (human, normal renal function; oral, 375 mg, decreased GFR TEAE, Moderate severity).
For `CC(C)(C)NCc1ccc(Nc2ccnc3cc(Cl)ccc23)cc1O`, the inhibition was 54.9% (SARS-CoV-2; viral replication; Vero E6, USA-WA1/2020; 2.5 µM).
The inhibition of `CC(C)=CCc1c(O)ccc(C(=O)/C=C/c2ccc(O)cc2)c1O` is reported as 0% (SARS-CoV-2; cytopathic effect; Vero E6; 50 µM, first run).
With `C/C(=C\c1ccc(C(=O)O)cc1)c1ccc2c(c1)C(C)(C)CCC2(C)C` the inhibition was 41.1% (SARS-CoV-2; viral replication; Vero E6, USA-WA1/2020; 2.5 µM).
The inhibition of `O=C(/C=C/c1ccc(O)c(O)c1/C=C/c1ccc(O)c(O)c1)O[C@H](Cc1ccc(O)c(O)c1)C(=O)O` is reported as 0% (SARS-CoV-2; cytopathic effect; Vero E6; 3.125 µM, first run).
`O=C(CSc1nc2ccccc2c(=O)[nH]1)NNC(=O)c1ccccc1Br` gave an inhibition of 38.2 ± 4.29% (SARS-CoV-2; viral replication, plaque reduction; 31.25 µM).

For quick reference, copied from above:
The inhibition of `COc1cccc2c(N3CCc4ccccc4C3C)nc(Nc3ccc(F)cc3C)nc12` (stereo not shown) is reported as 63.1% (SARS-CoV-2; viral replication; Vero C1008, USA-WA1/2020; 2.5 µM, reconfirmation).
The inhibition of `COc1ccc(C[C@@H]2c3cc(Oc4cc(C[C@@H]5c6cc(O)c(OC)cc6CCN5C)ccc4O)c(OC)cc3CCN2C)cc1` is reported as 50% (SARS-CoV-2; cytopathic effect; Vero E6; 50 µM, first run).
The inhibition of `O=C(CSc1nc2c(c(=O)[nH]1)CCCC2)NNC(=O)c1ccc(Cl)cc1` is reported as 34.4 ± 5.1% (SARS-CoV-2; virucidal activity, plaque reduction; 62.5 µM).
